Assay results collected from several papers.
Compare with care: the assays were run in different laboratories.
UniProt P80192, sequence (whole entry, looked up): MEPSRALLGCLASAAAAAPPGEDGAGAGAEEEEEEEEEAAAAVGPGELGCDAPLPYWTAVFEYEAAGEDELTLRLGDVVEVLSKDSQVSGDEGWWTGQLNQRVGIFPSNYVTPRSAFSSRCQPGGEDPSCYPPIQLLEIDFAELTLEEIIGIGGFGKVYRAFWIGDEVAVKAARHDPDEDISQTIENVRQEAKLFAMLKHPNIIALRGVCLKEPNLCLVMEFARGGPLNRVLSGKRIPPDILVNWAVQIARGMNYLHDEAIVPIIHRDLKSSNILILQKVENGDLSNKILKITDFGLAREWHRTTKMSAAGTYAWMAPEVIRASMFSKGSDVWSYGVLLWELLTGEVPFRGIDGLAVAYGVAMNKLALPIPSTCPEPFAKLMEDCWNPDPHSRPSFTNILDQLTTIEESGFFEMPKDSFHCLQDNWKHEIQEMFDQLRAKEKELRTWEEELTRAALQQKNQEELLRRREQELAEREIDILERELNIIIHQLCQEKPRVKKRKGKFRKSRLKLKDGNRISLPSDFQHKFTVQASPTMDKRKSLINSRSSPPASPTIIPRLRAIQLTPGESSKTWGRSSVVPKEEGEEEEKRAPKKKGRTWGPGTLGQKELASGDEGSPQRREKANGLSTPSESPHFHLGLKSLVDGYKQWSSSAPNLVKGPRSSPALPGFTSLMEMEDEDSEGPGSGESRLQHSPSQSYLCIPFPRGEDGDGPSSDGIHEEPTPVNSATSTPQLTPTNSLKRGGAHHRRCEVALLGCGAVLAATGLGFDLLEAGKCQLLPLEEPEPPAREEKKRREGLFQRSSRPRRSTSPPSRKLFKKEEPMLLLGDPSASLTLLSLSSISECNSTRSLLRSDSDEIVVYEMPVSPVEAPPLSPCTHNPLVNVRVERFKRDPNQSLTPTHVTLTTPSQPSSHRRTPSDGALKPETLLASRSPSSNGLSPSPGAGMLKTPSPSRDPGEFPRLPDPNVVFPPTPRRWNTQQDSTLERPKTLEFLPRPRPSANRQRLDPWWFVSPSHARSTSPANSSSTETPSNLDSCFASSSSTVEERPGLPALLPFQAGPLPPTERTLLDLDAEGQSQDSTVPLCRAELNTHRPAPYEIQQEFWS
UniProt P28482, sequence (whole entry, looked up): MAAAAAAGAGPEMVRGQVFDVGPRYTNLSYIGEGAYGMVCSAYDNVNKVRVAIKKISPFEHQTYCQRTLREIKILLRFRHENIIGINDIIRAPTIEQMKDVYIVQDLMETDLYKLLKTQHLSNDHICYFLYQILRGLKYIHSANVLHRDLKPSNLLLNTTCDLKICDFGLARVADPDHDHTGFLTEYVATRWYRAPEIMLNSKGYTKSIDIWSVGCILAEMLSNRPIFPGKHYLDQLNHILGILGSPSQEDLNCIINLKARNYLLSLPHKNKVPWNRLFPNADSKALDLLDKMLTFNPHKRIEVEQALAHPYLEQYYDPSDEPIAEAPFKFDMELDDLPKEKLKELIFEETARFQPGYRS
UniProt P49840, sequence (whole entry, looked up): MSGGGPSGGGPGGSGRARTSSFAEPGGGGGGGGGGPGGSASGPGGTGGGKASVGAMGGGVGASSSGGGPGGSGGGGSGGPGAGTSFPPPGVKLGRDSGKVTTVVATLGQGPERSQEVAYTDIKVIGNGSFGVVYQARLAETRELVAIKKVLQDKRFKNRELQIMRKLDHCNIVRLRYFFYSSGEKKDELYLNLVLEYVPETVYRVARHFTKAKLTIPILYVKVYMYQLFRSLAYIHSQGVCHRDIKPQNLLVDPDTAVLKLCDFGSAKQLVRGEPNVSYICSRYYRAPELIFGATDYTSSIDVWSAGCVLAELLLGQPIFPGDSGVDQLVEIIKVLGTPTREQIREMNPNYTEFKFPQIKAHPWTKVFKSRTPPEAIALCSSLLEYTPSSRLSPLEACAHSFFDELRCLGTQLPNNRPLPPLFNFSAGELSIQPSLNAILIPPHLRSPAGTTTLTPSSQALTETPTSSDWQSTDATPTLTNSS

CNc1ncc2c(/C=C/C(=O)N3CCC(OC)CC3)nn(Cc3cccc(C(F)(F)F)c3)c2n1 — remaining activity (MAP3K9 (Homo sapiens, UniProt P80192); enzyme activity, inhibitor, radiometric; 1 µM): 102%
COc1ccc2c(=O)n(C)c(-c3ccccc3)nc2c1 — concentration (male Sprague-Dawley rat, lung; oral, 30 mg/kg, 2 h, single dose): 23.4 ng/g
O=C1CCC(N2Cc3cc(CO)c(F)cc3C2=O)C(=O)N1 (stereo not drawn) — concentration (male CD-1 mouse, plasma; intravenous, 1 mg/kg, 4.98 min): 820 ng/mL
COc1cc(-c2cncc3c2CN(C)Cc2cc(N4CCNCC4)ccc2-3)cc(OC)c1OC — remaining activity (GSK3A (Homo sapiens, UniProt P49840); enzyme activity, inhibitor; 1 µM): 101%
Cc1noc(C)c1Cn1cc(N2C(=O)CN(Cc3cccc(O)c3)C2=O)cn1 — concentration (male Sprague-Dawley rat, plasma; oral, 30 mg/kg, 4 h): 15.9 ng/mL
O=c1nc(N2CCN(CC3CCCCC3)CC2)sc2c([N+](=O)[O-])cc(C(F)(F)F)cc12 — concentration (CD-1 mouse, lung; oral, 100 mg/kg, 24 h): 25.1 ng/mL
CCc1cc(-c2noc(-c3cc(OC)nc(C4CCCC4)c3)n2)cc(C)c1OC[C@@H](O)CO — concentration (Wistar rat, plasma; oral, 0.1 mg/kg, 6 h, single dose): 5.2 ng/mL
Nc1ccn([C@@H]2O[C@H](CO)[C@@H](O)C2(F)F)c(=O)n1 — viability (HEK293; cell growth or viability, MTT; 0.3125 µg/mL, 24 h): 89.4%
C=CC(=O)N1CCC(COCC(=O)N2CCN(c3nc(-c4cnc(N)nc4C(F)F)nc(N4CCOC[C@@H]4C)n3)CC2)CC1 — remaining binding (MAPK1 (Homo sapiens, UniProt P28482); binding, competition with immobilised ligand; 1 µM): 100%
NCc1cc2c(cc1F)C(=O)N(C1CCC(=O)NC1=O)C2 (stereo not drawn) — concentration (male cynomolgus monkey, plasma; oral, 0.3 mg/kg, 1 h): 1.02 ng/mL
CCOC(=O)[C@@]12C[C@@H]1[C@@H](n1ccc3c(NC)nc(C#Cc4ccc(Cl)s4)nc31)[C@H](O)[C@@H]2O — concentration (male Sprague-Dawley rat, plasma; oral, 1 mg/kg, 4 h): 3.9 ng/mL
COc1cccc(-c2n[nH]c(SCc3ccccn3)n2)c1OC — concentration (female Sprague-Dawley rat, plasma; oral, 30 mg/kg, 30 min, single dose): 34800 ng/mL
